Assay results gathered from unrelated publications.
Each line is one published result; not all experiments were run side by side.
Organism: Staphylococcus aureus

CCCCCCCCCC(=O)NCCCC[C@H](NC(=O)[C@H](CCCCN)NC(=O)[C@@H]1CSCC(=O)N[C@@H](CCCCN)C(=O)N[C@@H](CC(C)C)C(=O)N[C@@H](CCCCN)C(=O)NCCCC[C@@H]2NC(=O)[C@H](CCCCN)NC(=O)[C@H](CC(C)C)NC(=O)[C@H](CCCCN)NC(=O)CSC[C@H](NC(=O)[C@H](CC(C)C)NC(=O)[C@H](CC(C)C)NC(=O)[C@H](CCCCN)NC2=O)C(=O)N[C@@H](CC(C)C)C(=O)N[C@@H](CC(C)C)C(=O)N[C@@H](CC(C)C)C(=O)N1)C(N)=O  MIC (broth microdilution; Newman, methicillin-susceptible): 64 µg/mL
CN[C@H](CC(C)C)C(=O)N[C@H]1C(=O)N[C@@H](CC(N)=O)C(=O)N[C@H]2C(=O)N[C@H]3C(=O)N[C@H](C(=O)N[C@H](C(=O)NCC(N)=O)c4cc(O)cc(O)c4-c4cc3ccc4O)[C@H](O)c3ccc(c(Cl)c3)Oc3cc2cc(c3O[C@@H]2O[C@H](CO)[C@@H](O)[C@H](O)[C@H]2O[C@H]2C[C@](C)(NCc3ccc(OCc4cn(CC(=O)N[C@H](C(=O)N[C@@H](CCN)C(=O)N[C@H]5CCNC(=O)[C@H]([C@@H](C)O)NC(=O)[C@H](CCN)NC(=O)[C@H](CCN)NC(=O)[C@H](CC(C)C)NC(=O)[C@@H](CC(C)C)NC(=O)[C@H](CCN)NC5=O)[C@@H](C)O)nn4)c(OC)c3)[C@H](O)[C@H](C)O2)Oc2ccc(cc2Cl)[C@H]1O  MIC (MRSA USA300): 0.093 µM
Cc1ccc2[nH]c3c(c2c1)CCCC3NCCc1ccc(Br)cc1 (stereo not drawn)  MIC (broth microdilution; ATCC 29213): 4 µg/mL
COc1ccc(NC(=O)Nc2cccc(C(=O)N3CCC(C)CC3)c2)cc1  MIC (checkerboard, refers to: ceftobiprole; CRB, PBP4 overexpressor; 25 µM): > 64 µg/mL
CC(C)CCCCCCCCC/C=C/C(=O)N[C@@H](CC(N)=O)C(=O)N[C@H]1CNC(=O)[C@@H]2CCCN2C(=O)[C@H](C(C)C)NC(=O)[C@@H](CN)NC(=O)CNC(=O)[C@H](CC(=O)O)NC(=O)CNC(=O)[C@H](CC(=O)O)NC(=O)[C@H](CC(=O)O)NC(=O)[C@H]2CCCCN2C1=O  MIC (broth microdilution; VISA LIM strain 2, Mueller-Hinton broth, Mg2+ 10 mg/L; 16 h, with: Ca2+ 2.5 mM): 4 µg/mL
CC(C)[C@H](NC(=O)CNC(=O)CNC(=O)[C@H](Cc1ccc(O)cc1)NC(=O)[C@H](CS)NC(=O)[C@@H](NC(=O)[C@H](Cc1c[nH]c2ccccc12)NC(=O)[C@H](Cc1ccccc1)NC(=O)[C@H](CS)NC(=O)[C@H](Cc1c[nH]c2ccccc12)NC(=O)[C@@H](N)CCCNC(=N)N)C(C)C)C(=O)N[C@@H](CS)C(=O)N[C@@H](Cc1ccc(O)cc1)C(=O)N[C@@H](CCCNC(=N)N)C(=O)N[C@@H](CCCNC(=N)N)C(=O)N[C@@H](CS)C(=O)N[C@@H](CCCNC(=N)N)C(=O)O  MIC (broth microdilution; ATCC 25923): 0.64 log10 µg/mL
C#CCOc1ccc(CN[C@@]2(C)C[C@H](O[C@H]3[C@H](Oc4c5cc6cc4Oc4ccc(cc4Cl)[C@@H](O)[C@@H](NC(=O)[C@@H](CC(C)C)NC)C(=O)N[C@@H](CC(N)=O)C(=O)N[C@H]6C(=O)N[C@H]4C(=O)N[C@H](C(=O)N[C@H](C(=O)O)c6cc(O)cc(O)c6-c6cc4ccc6O)[C@H](O)c4ccc(c(Cl)c4)O5)O[C@H](CO)[C@@H](O)[C@@H]3O)O[C@@H](C)[C@H]2O)cc1OC  MIC (MSSA ATCC 29213): 1 µM
CC[C@H](C)[C@H](NC(=O)[C@@H](CCCNC(=N)N)NC(=O)[C@H](CCCNC(=N)N)NC(=O)[C@@H]1CCCN1C(=O)[C@@H]1CCCN1C(=O)[C@H](Cc1c[nH]c2ccccc12)NC(=O)[C@@H]1CCCN1C(=O)[C@H](CCCNC(=N)N)NC(=O)[C@@H]1CCCN1C(=O)[C@H](CC(C)C)NC(=O)[C@H](Cc1ccc(O)cc1)NC(=O)[C@@H]1CCCN1C(=O)[C@@H]1CCCN1C(=O)[C@H](CCCCN)NC(=O)[C@H](CC(=O)O)NC(=O)[C@@H](N)C(C)C)C(=O)N[C@@H](Cc1ccc(O)cc1)C(=O)N[C@@H](CC(N)=O)C(=O)N[C@H](CCCNC(=N)N)C(N)=O  MIC (broth microdilution; DSM 6247; 18 h, 37 °C, 25% MHB2): > 128 µg/mL
CC[C@H](C)[C@@H]1NC(=O)[C@H](CO)NC(=O)[C@H](CCCCN)NC(=O)[C@@H]2CSSC[C@@H](C(=O)N[C@@H](Cc3ccc(O)cc3)C(N)=O)NC(=O)[C@H](CCCCN)NC(=O)[C@@H]3CSSC[C@H](NC(=O)[C@H](CCCNC(=N)N)NC(=O)[C@H](CC(C)C)NC(=O)[C@H](CC(=O)O)NC(=O)[C@H](CC(=O)O)NC(=O)[C@H](CCC(=O)O)NC(=O)[C@H](CC(N)=O)NC(=O)[C@H](Cc4c[nH]c5ccccc45)NC(=O)C(C)(CC)NC(=O)CNC(=O)[C@H](CC(N)=O)NC(=O)[C@@H](NC(=O)CNC(=O)[C@H](Cc4ccccc4)NC(=O)CN)CSSC[C@H](NC(=O)[C@H](Cc4ccc(O)cc4)NC(=O)CNC(=O)CNC(=O)[C@H](CCCCN)NC(=O)[C@H](Cc4ccc(O)cc4)NC(=O)[C@H]4CCCN4C(=O)[C@@H]4CCCN4C1=O)C(=O)N[C@@H](C)C(=O)N[C@@H](CCCCN)C(=O)N1CCC[C@@H]1C(=O)NCC(=O)N[C@@H](Cc1ccccc1)C(=O)N[C@@H](C(C)C)C(=O)N3)C(=O)N[C@@H](Cc1c[nH]cn1)C(=O)N[C@@H](CC(N)=O)C(=O)N[C@@H](Cc1c[nH]cn1)C(=O)N2 (stereo partly drawn)  MIC (473, methicillin-resistant mecA, cation-adjusted Mueller Hinton broth; 18 h, 37 °C): 2 µM
C=C1NC(=O)C2CSCC3NC(=O)C(CSC(C)C(NC(=S)C(Cc4cnc[nH]4)NC(=O)c4csc(C(C)NC(C)=O)n4)C(=O)N[C@H](CC(C)C(=O)NC(=O)CC(C(=O)O)NC(=O)C(C)NC3=O)C(=O)N2)NC(=O)[C@@H]2CCCN2C(=O)[C@@H](CC(C)C)NC1=O (stereo partly drawn)  MIC (bacterial growth; ATCC 29213): > 32 µg/mL
CN[C@H](CC(C)C)C(=O)N[C@H]1C(=O)N[C@@H](CC(N)=O)C(=O)N[C@H]2C(=O)N[C@H]3C(=O)N[C@H](C(=O)N[C@H](C(=O)O)c4cc(O)cc(O)c4-c4cc3ccc4O)[C@H](O)c3ccc(c(Cl)c3)Oc3cc2cc(c3O[C@@H]2O[C@H](CO)[C@@H](O)[C@H](O)[C@H]2O[C@H]2C[C@](C)(N)[C@H](O)[C@H](C)O2)Oc2ccc(cc2Cl)[C@H]1O  MIC (clinical isolate; 18 to 20 h, 37 °C): < 1 µM
CC(C)C[C@@H](NC(=O)[C@@H](CCCNC(=N)N)NC(=O)[C@H](N)CCCNC(=N)N)C(=O)N[C@H](CC(C)C)C(=O)N[C@H](CCCNC(=N)N)C(=O)N[C@H](CCCCN)C(=O)N[C@H](CC(C)C)C(=O)N[C@H](CCCCN)C(=O)NCC(=O)N[C@H](CCCCN)C(=O)N[C@H](CCCCN)C(=O)N[C@H](CC(C)C)C(=O)N[C@H](Cc1ccc(O)cc1)C(=O)N[C@H](CC(C)C)C(=O)N[C@H](Cc1ccc(O)cc1)C(=O)N[C@H](Cc1ccccc1)C(=O)N[C@H](CCCCN)C(=O)N[C@H](CC(C)C)C(=O)N[C@H](CCC(N)=O)C(=O)N[C@H](CC(C)C)C(=O)N[C@H](CC(C)C)C(=O)N[C@H](CCCCN)C(=O)N[C@H](CCCCN)C(N)=O  MIC (CCARM 3089, methicillin-resistant, Mueller-Hinton broth; 24 h): 4 µM
CN[C@H](CC(C)C)C(=O)N[C@H]1C(=O)N[C@@H](CC(N)=O)C(=O)N[C@H]2C(=O)N[C@H]3C(=O)N[C@H](C(=O)N[C@H](C(=O)NCc4cn(CC(=O)N[C@H](C(=O)N[C@@H](CCN)C(=O)N[C@H]5CCNC(=O)[C@H]([C@@H](C)O)NC(=O)[C@H](CCN)NC(=O)[C@H](CCN)NC(=O)[C@H](CC(C)C)NC(=O)[C@@H](CC(C)C)NC(=O)[C@H](CCN)NC5=O)[C@@H](C)O)nn4)c4cc(O)cc(O)c4-c4cc3ccc4O)[C@H](O)c3ccc(c(Cl)c3)Oc3cc2cc(c3O[C@@H]2O[C@H](CO)[C@@H](O)[C@H](O)[C@H]2O[C@H]2C[C@](C)(N)[C@H](O)[C@H](C)O2)Oc2ccc(cc2Cl)[C@H]1O  MIC (NRS402 VISA): 6 µM
CCCCCCCCCCCCCC(=O)N[C@H]1C(=O)N[C@@H](CN)C(=O)N[C@@H](CO)C(=O)N[C@@H](Cc2ccc(O)cc2)C(=O)O[C@H]1C  MIC (SH1000; with: phosphatidylcholine, molar ratio 1): 2 µg/mL
CC(C)C[C@H](NC(=O)[C@H](CCCCN)NC(=O)C1CCC=CCCC(NC(=O)[C@H](CCCCN)NC(=O)[C@@H](N)CC(C)C)C(=O)N[C@@H](CCCCN)C(=O)N[C@@H](CC(C)C)C(=O)N[C@@H](CCCCN)C(=O)N2CCC[C@@H]2C(=O)NCC(=O)N[C@@H](CCCCN)C(=O)N[C@@H](CC(C)C)C(=O)N[C@@H](CCCCN)C(=O)N1)C(N)=O (stereo partly drawn)  MIC (broth microdilution; ATCC 29737, Mueller-Hinton broth; 18 h, 37 °C): 128 µM
COc1ccc(/C=N/[C@@H]2CCCC[C@@H]2/N=C/c2c(O)ccc3ccc(OC)cc23)c(O)c1  MIC (bacterial growth, broth microdilution; vancomycin-intermediate): > 40 µM
Oc1c(Br)cc(Br)c2nc3cc(C(F)(F)F)ccc3nc12  MIC (broth microdilution; MRSA BAA-44): 0.08 µM
CN[C@H](CC(C)C)C(=O)N[C@H]1C(=O)N[C@@H](CC(N)=O)C(=O)N[C@H]2C(=O)N[C@H]3C(=O)N[C@H](C(=O)N[C@H](C(=O)N[C@@H](CCCNC(=N)N)C(N)=O)c4cc(O)cc(O)c4-c4cc3ccc4O)[C@H](O)c3ccc(c(Cl)c3)Oc3cc2cc(c3O[C@@H]2O[C@H](CO)[C@@H](O)[C@H](O)[C@H]2O[C@H]2C[C@](C)(NCc3ccc(OCc4cn(CC(=O)N[C@H](C(=O)N[C@@H](CCN)C(=O)N[C@H]5CCNC(=O)[C@H]([C@@H](C)O)NC(=O)[C@H](CCN)NC(=O)[C@H](CCN)NC(=O)[C@H](CC(C)C)NC(=O)[C@@H](CC(C)C)NC(=O)[C@H](CCN)NC5=O)[C@@H](C)O)nn4)c(OC)c3)[C@H](O)[C@H](C)O2)Oc2ccc(cc2Cl)[C@H]1O  MIC (VRSA 2 vanA): > 46 µM

A few entries again:
C#CCOc1ccc(CN[C@@]2(C)C[C@H](O[C@H]3[C@H](Oc4c5cc6cc4Oc4ccc(cc4Cl)[C@@H](O)[C@@H](NC(=O)[C@@H](CC(C)C)NC)C(=O)N[C@@H](CC(N)=O)C(=O)N[C@H]6C(=O)N[C@H]4C(=O)N[C@H](C(=O)N[C@H](C(=O)O)c6cc(O)cc(O)c6-c6cc4ccc6O)[C@H](O)c4ccc(c(Cl)c4)O5)O[C@H](CO)[C@@H](O)[C@@H]3O)O[C@@H](C)[C@H]2O)cc1OC  MIC (MSSA ATCC 29213): 1 µM
